# Measurements gathered from unrelated publications.
# ± marks the error that the study gave.
SMILES,target or system,assay,test system,conditions,scale,quantity,result
CC(C)[C@H]1NC(=O)C[C@H]2/C=C/CCSSC[C@@H](NC1=O)C(=O)N[C@H](Cc1cccc3ccccc13)C(=O)NCC(=O)O2,,,"nude mouse, blood","oral, 12 mg/kg",,Cmax,0.825 ng/mL
CC(C)C[C@@H](N)C(=O)NCC(=O)N[C@H](C)C(=O)N[C@H](CO)C(=O)N[C@H](Cc1c[nH]c2ccccc12)C(=O)N[C@H](Cc1c[nH]cn1)C(=O)N[C@H](CCCNC(=N)N)C(=O)N1CCC[C@@H]1C(=O)N[C@H](CC(=O)O)C(=O)N[C@H](CCCCN)C(=O)N[C@H](CS)C(=O)N[C@H](CS)C(=O)N[C@H](CC(C)C)C(=O)NCC(=O)N[C@H](Cc1ccc(O)cc1)C(=O)N[C@H](CCC(N)=O)C(=O)N[C@H](CCCCN)C(=O)N[C@H](CCCNC(=N)N)C(=O)N1CCC[C@@H]1C(=O)N[C@H](CC(C)C)C(=O)N1CCC[C@@H]1C(N)=O,,,"male Sprague-Dawley rat, plasma","subcutaneous, 10 mg/kg, single dose",,Cmax,8590 ng/mL
CCc1c2c(nc3ccc(OC4OC(C(=O)O)C(O)C(O)C4O)cc13)-c1cc3c(c(=O)n1C2)COC(=O)C3(O)CC (centres unmarked),,,"human patients, plasma","intravenous, 177 mg/m^2 of parent drug",,Cmax,131 ng/mL
O=c1cc(-c2ccccc2)oc2c(Br)c(O)c(O)c(O)c12,,,"C57BL/6 mouse, plasma","oral, 250 mg/kg, single dose",,Cmax,6440 ng/mL
[2H]C([2H])([2H])C([2H])([2H])C([2H])([2H])OC(C(=O)OC1CCNCC1)(c1ccccc1)c1ccccc1,,,"healthy Japanese male subjects, plasma","oral, 15 mg once daily, day 1, fed, mean",,Cmax,29.7 ng/mL
CCCCCCCC(=O)OC[C@H](NC(=O)[C@H](CO)NC(=O)CN)C(=O)N[C@@H](Cc1ccccc1)C(=O)N[C@@H](CC(C)C)C(=O)N[C@@H](CO)C(=O)N1CCC[C@H]1C(=O)N[C@@H](CCC(=O)O)C(=O)N[C@@H](Cc1cnc[nH]1)C(=O)N[C@@H](CCC(N)=O)C(=O)N[C@@H](CCCNC(=N)N)C(=O)N[C@H](C(=O)N[C@@H](CCC(N)=O)C(=O)N[C@@H](CCC(N)=O)C(=O)N[C@@H](CCCNC(=N)N)C(=O)N[C@@H](CCCCN)C(=O)N[C@@H](CCC(=O)O)C(=O)N[C@@H](CO)C(=O)N[C@@H](CCCCN)C(=O)N[C@@H](CCCCN)C(=O)N1CCC[C@H]1C(=O)N1CCC[C@H]1C(=O)N[C@@H](C)C(=O)N[C@@H](CCCCN)C(=O)N[C@@H](CC(C)C)C(=O)N[C@@H](CCC(N)=O)C(=O)N1CCC[C@H]1C(=O)N[C@@H](CCCNC(=N)N)C(=O)O)C(C)C,,two-site ELISA,"human, plasma","intravenous infusion, 1 µg/kg/h, 65 min infusion",,Cmax,3.9 ± 3.5 ng/mL
C(#Cc1cncc(OC[C@@H]2CCN2)c1)c1ccccc1,,,"male Sprague-Dawley rat, plasma","oral, 75 mg/kg",,Cmax,560 ng/mL
CN[C@](C)(C[18F])C(=O)O,DU-145 tumour model,,"host not given, liver","30 min, tumour-bearing",,tracer uptake,5.5 %ID/g
CC[C@H](C)C(=O)N1CCC(NC(=O)Nc2ccc(OC(F)(F)F)c(F)c2)CC1,,,healthy volunteers,"oral, 8 mg","relative to: fasted, increase",Cmax,66%
CC(=CCC(O)C(C)=Cc1csc(C)n1)CC=CC(C)C(O)C(C)C(=O)C(C)(C)C(O)CC(=O)O (centres unmarked),,,"human, plasma","intravenous infusion, 48 mg/m2 KOS-1584, 3 h infusion, cycle 1",,Cmax,46.2 ± 1.84 ng/mL
CCC[C@@H]1O[C@@H]2C[C@H]3[C@@H]4C[C@H](F)C5=CC(=O)CC[C@]5(C)[C@@]4(F)[C@@H](O)C[C@]3(C)[C@]2(C(=O)CO)O1,,measured: parent steroid,"CD1 mice, plasma","intravenous, 0.15 mg/kg, with: budesonide 0.2 mg/kg",,Cmax,267 nM
